# Experimental data gathered from unrelated publications.
# Lines come from different studies, so protocols differ. ± marks the error that the study gave.
# Organism: Plasmodium falciparum
SMILES,assay,system,conditions,IC50 [nM]
CCN(CC)CCCC(C)Nc1ccnc2cc(Cl)ccc12 (stereo not drawn),"parasite growth, LDH",3D7,,22
CCCCCCNC[C@H](O)c1cc(Cl)cc2c1-c1ccc(Cl)cc1C2,,3D7,48 h,31.1 ± 1.7
CC1=C(Cn2cnc([N+](=O)[O-])n2)C(=O)c2ccccc2C1=O,"parasite growth, [3H]hypoxanthine incorporation",NF54,72 h,> 10000
CN1CCC(NCc2cccc(-c3ccc(S(=O)(=O)NCc4ccccc4)cc3)c2)CC1,"parasite growth, inhibitor, SYBR Green I",3D7,,400
CCCCCCCCNC[C@@H](O)c1cc(Cl)cc2c1-c1ccc(Cl)cc1C2,,3D7,48 h,4.5 ± 0.2
COc1cc(CO)c(-c2ccc3c(c2O)[C@@H](C)N[C@H](C)C3)c2cccc(O)c12,"asexual parasite proliferation, SYBR Green I fluorescence","clinical isolate SB_05, Mozambique",,9.8 ± 0.3
CCN(CC)CCCC(C)Nc1ccnc2cc(Cl)ccc12 (stereo not drawn),growth,3D7,"96 h, with: 200 µM IPP",3 ± 2
CC1=C(C)/C(=C/c2cc(-c3ccc(OC(F)(F)F)cc3)c(C)[nH]2)N=C1c1ccc[nH]1,"parasite growth, SYBR Green fluorescence","Tm90-C2B (atovaquone-resistant), asexual blood stage",72 h,1810
O[C@@H](CNCCN1CCN(C(c2ccccc2)c2ccccc2)CC1)c1cc(Cl)cc2c1-c1ccc(Cl)cc1C2,,3D7,48 h,14.2 ± 1.6
COC1=CC(c2ccc[nH]2)=N/C1=C\c1[nH]c(C(=O)O)cc1Cc1ccc(OC(F)(F)F)cc1,"parasite growth, SYBR Green fluorescence","Dd2 (multidrug-resistant), asexual blood stage",72 h,> 2500
CC1=C(Cn2cc(CN3CCNCC3)nn2)C(=O)c2ccccc2C1=O,"parasite growth, [3H]hypoxanthine incorporation",NF54,72 h,> 10000
"COc1cc(C)c(-c2ccc(O)c3c2C[C@@H](C)N[C@@H]3C)c2cccc(O)c12 (single isomer, unassigned)","asexual parasite proliferation, SYBR Green I fluorescence",K1,,43.6 ± 8.9
CO[C@H]1C[C@@H](C[C@H](C)[C@H]2CC(=O)[C@@H](C)/C=C(\C)[C@H](O)[C@H](OC)C(=O)[C@@H](C)C[C@@H](C)/C=C/C=C/C=C(\C)[C@H](OC)C[C@H]3CC[C@H](C)[C@](O)(O3)C(=O)C(=O)N3CCCC[C@@H]3C(=O)O2)CC[C@@H]1OCCO (racemic),"parasite growth, inhibitor, SYBR Green I",3D7,,970
CCCCCNCC(O)c1cc(Cl)cc2c1-c1ccc(Cl)cc1C2 (racemic),,3D7,48 h,3.6 ± 0.5
CC1=C(C)/C(=C/c2[nH]c(Cc3ccc(Cl)cc3)cc2Cc2ccc(Cl)cc2)N=C1c1ccc[nH]1,"parasite growth, SYBR Green fluorescence","Dd2 (multidrug-resistant), asexual blood stage",72 h,> 2500
N=C(CC(O)c1nc2ccccc2c2ccc(Cl)cc12)Nc1ccc(F)cc1 (stereo not drawn),"parasite growth, HRP2-ELISA",clinical isolates from Gabon,"ex vivo, median",33.2
CC1=C(Cc2cn(CCOS(=O)(=O)c3ccc(C)cc3)nn2)C(=O)c2ccccc2C1=O,"parasite growth, [3H]hypoxanthine incorporation",NF54,72 h,770
CCCN(CCc1cccs1)[C@H]1CCc2c(O)cccc2C1,SYBR Green I,3D7,"48 h, ring stage",> 10000
COc1nc2ccc(Br)cc2cc1[C@@H](c1ccccc1)[C@@](O)(CCN(C)C)c1cccc2ccccc12,"parasite growth, stage-specific treatment",,"12 h, early to late ring stage",2970 ± 90
CCC1=C(CC)/C(=C/c2[nH]c(Cc3ccc(Cl)cc3)cc2Cc2ccc(Cl)cc2)N=C1c1ccc[nH]1,"parasite growth, SYBR Green fluorescence","Dd2 (multidrug-resistant), asexual blood stage",72 h,96.1
O=C(CC1NCCCC1O)Cn1cnc2cc(Br)c(Cl)cc2c1=O (stereo not drawn),parasite growth,conditional knockdown control line,"72 h, with: 50 nM anhydrotetracycline",0.4
O[C@H](CN[C@H](COCC1CC1)Cc1ccccc1)c1cc(Cl)cc2c1-c1ccc(Cl)cc1C2,,3D7,48 h,11.2 ± 1.5
CCC(=O)CCCCCCC(=O)Nc1ccccc1,[3H]-hypoxanthine incorporation,,,83300
CCc1nc(N)nc(N)c1-c1ccc(Cl)cc1,cell growth,"erythrocytes, Dd2",low-folate medium,2290 ± 470
CC1=C(Cc2cn(CCN3CCNCC3)nn2)C(=O)c2ccccc2C1=O,"parasite growth, [3H]hypoxanthine incorporation",NF54,72 h,6510
CCCCNC[C@@H](O)c1cc(Cl)cc2c1-c1ccc(Cl)cc1C2,,3D7,48 h,23.3 ± 3.3
CC1=C(Cn2ccnn2)C(=O)c2ccccc2C1=O,"parasite growth, [3H]hypoxanthine incorporation",NF54,72 h,> 10000
CC(C)(C)NC(=O)[C@@H]1CN(Cc2cnc3occc3c2)CCN1C[C@@H](O)C[C@@H](Cc1ccccc1)C(=O)N[C@H]1c2ccccc2C[C@H]1O,"parasite growth, stage-specific treatment",,"12 h, early to late ring stage",> 10000
COc1ncnc(NS(=O)(=O)c2ccc(N)cc2)c1OC,cell growth,"erythrocytes, HB3",low-folate medium,175000 ± 71600
CC1(C)N=C(N)N=C(N)N1c1ccc(Cl)cc1,growth,3D7,48 h,38 ± 10
COC1=CC(c2ccc[nH]2)=N/C1=C\c1[nH]c(Cc2ccc(OC(F)(F)F)cc2)cc1Cc1ccc(OC(F)(F)F)cc1,"parasite growth, SYBR Green fluorescence","Tm90-C2B (atovaquone-resistant), asexual blood stage",72 h,34.7
CCC1=C(CC)/C(=C/NC23CC4CC(CC(C4)C2)C3)N=C1c1cc2ccccc2[nH]1,"parasite growth, asexual blood stage","Tm90-C2B, atovaquone-resistant MDR isolate","72 h, MSF",410
NC(N)=Nc1ccc(-c2ccc(-c3ccc(N=C(N)N)c(Cl)c3)o2)cc1Cl,"parasite growth, stage-specific treatment",,"12 h, early to late ring stage",1310 ± 70
CC1=C(C)/C(=C/c2cc(-c3ccc(Cl)cc3)c(C)[nH]2)N=C1c1ccc[nH]1,"parasite growth, SYBR Green fluorescence","Dd2 (multidrug-resistant), asexual blood stage",72 h,> 2500
Oc1cccc(C(Nc2nccs2)c2ccc3cccnc3c2O)c1 (stereo not drawn),"parasite growth, stage-specific treatment",,"12 h, early to late trophozoite stage",7130 ± 300
CC1=C(Cn2cc(CN3CCSC3)nn2)C(=O)c2ccccc2C1=O,"parasite growth, [3H]hypoxanthine incorporation",NF54,72 h,> 10000
N=C(CC(O)c1nc2ccccc2c2ccc(Br)cc12)Nc1ccc(F)cc1 (stereo not drawn),"parasite growth, HRP2 ELISA",clinical isolates from Gabon,"ex vivo, range over isolates",2.8 to 117
CCCCCCCNC[C@H](O)c1cc(Cl)cc2c1-c1ccc(Cl)cc1C2,,3D7,48 h,0.9 ± 0.01
CCC1=C(CC)/C(=C/c2[nH]c(Cc3ccc(OC(F)(F)F)cc3)cc2Cc2ccc(OC(F)(F)F)cc2)N=C1c1ccc[nH]1,"parasite growth, SYBR Green fluorescence","Tm90-C2B (atovaquone-resistant), asexual blood stage",72 h,1080
Nc1ccc(S(=O)(=O)c2ccc(N)cc2)cc1,cell growth,"erythrocytes, HB3",low-folate medium,26500 ± 2460
O=C1C(O)=C([C@H]2CC[C@H](c3ccc(Cl)cc3)CC2)C(=O)c2ccccc21,"parasite growth, SYBR Green fluorescence","Dd2 (multidrug-resistant), asexual blood stage",72 h,0.527
CCN(CC)CCCC(C)Nc1ccnc2cc(Cl)ccc12 (stereo not drawn),parasite growth,"3D7, artemisinin-sensitive",72 h,20.1 ± 1.4
N=C(N)c1ccc(OCCCCCOc2ccc(C(=N)N)cc2)cc1,"parasite growth, inhibitor, SYBR Green I",3D7,,3.2
C[C@H](O)C(=O)CCCCCCC(=O)Nc1cccc(-c2cn(-c3ccccc3)nn2)c1,[3H]-hypoxanthine incorporation,,,4850
N=C(N)NCCCCC(=O)Nc1cc(C(F)(F)F)cc(NC(=O)c2cc(C(=O)Nc3cc(C(F)(F)F)cc(NC(=O)CCCCNC(=N)N)c3O[C@@H]3CCNC3)ncn2)c1O[C@@H]1CCNC1,"parasite growth, inhibitor, SYBR Green I",3D7,,453
CCN(CC)CCCC(C)Nc1ccnc2cc(Cl)ccc12 (stereo not drawn),"asexual parasite growth, SYBR Green I","clinical isolate SB_04, Malawi",,5.9 ± 0.49
CCC1=C(C)/C(=C/NC23C[C@H]4C[C@@H](C2)C[C@@H](C3)C4)N=C1c1ccc(CC)[nH]1,"parasite growth, SYBR Green I fluorescence","D6, chloroquine-sensitive",72 h,< 1
CC1(C)Cc2c([nH]c3ccccc23)C2(N1)C(=O)Nc1ccc(Cl)cc12 (stereo not drawn),"parasite growth, [3H]hypoxanthine incorporation",NF54,,> 1000

# For quick reference, copied from above:
SMILES,assay,system,conditions,IC50 [nM]
N=C(N)c1ccc(OCCCCCOc2ccc(C(=N)N)cc2)cc1,"parasite growth, inhibitor, SYBR Green I",3D7,,3.2
CCCCCCCNC[C@H](O)c1cc(Cl)cc2c1-c1ccc(Cl)cc1C2,,3D7,48 h,0.9 ± 0.01
N=C(CC(O)c1nc2ccccc2c2ccc(Cl)cc12)Nc1ccc(F)cc1 (stereo not drawn),"parasite growth, HRP2-ELISA",clinical isolates from Gabon,"ex vivo, median",33.2
C[C@H](O)C(=O)CCCCCCC(=O)Nc1cccc(-c2cn(-c3ccccc3)nn2)c1,[3H]-hypoxanthine incorporation,,,4850
CCCCNC[C@@H](O)c1cc(Cl)cc2c1-c1ccc(Cl)cc1C2,,3D7,48 h,23.3 ± 3.3
CCN(CC)CCCC(C)Nc1ccnc2cc(Cl)ccc12 (stereo not drawn),"asexual parasite growth, SYBR Green I","clinical isolate SB_04, Malawi",,5.9 ± 0.49
CC1(C)N=C(N)N=C(N)N1c1ccc(Cl)cc1,growth,3D7,48 h,38 ± 10
CCC(=O)CCCCCCC(=O)Nc1ccccc1,[3H]-hypoxanthine incorporation,,,83300
